Assay results gathered from unrelated publications.
Parts stem from different laboratories: compare values within a part only. Substitutions count along the parent as printed.

Set 1
Target: CCNA1, cyclin fold, Cln2 fusion (human)
Technique: yeast growth competition, sequencing
Sample: yeast
Setting: weak parent motif
Reference: not given
Reading: higher = stronger binding
Starting sequence: viral docking peptide; KKAKRRLFTISDS; partner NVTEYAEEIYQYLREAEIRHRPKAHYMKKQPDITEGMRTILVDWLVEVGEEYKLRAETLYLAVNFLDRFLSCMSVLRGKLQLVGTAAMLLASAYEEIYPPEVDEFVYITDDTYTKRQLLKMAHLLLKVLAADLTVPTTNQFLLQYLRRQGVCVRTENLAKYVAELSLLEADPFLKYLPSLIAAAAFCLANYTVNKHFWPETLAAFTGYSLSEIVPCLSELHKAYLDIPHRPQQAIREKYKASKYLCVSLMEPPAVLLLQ
| Variant | normalised enrichment score |
| --- | --- |
| KKAKKRLLTISDS [R5K F8L] | 0.44 |
| KKAKARLFTISDS [R5A] | 0.217 |
| KKAKRRLLTISDS [F8L] | 0.911 |
| KKAKRALFTISDS [R6A] | 0.522 |
| KKAKRRAFTISDS [L7A] | 0.241 |
| KKAKRRLFTIADS [S11A] | 0.493 |
| KAAKRRLFTISDS [K2A] | 0.525 |
| KKAKRRLATISDS [F8A] | 0.369 |

Set 2
Target: Fragile X messenger ribonucleoprotein 1, C-terminal low-complexity region (Fmr1, Mus musculus, UniProt P35922)
Technique: RNA Bind-n-Seq
Molecule type: RNA
Sample: in vitro
Concentration: 200 nM
Setting: whole 134-nt RNA, ends assumed
With: 150 mM LiCl
Reference: input library
Reading: higher = stronger binding
Library: 7-deaza-guanosine replaces G
Shared flanks, not repeated: GGGAGUUCUACAGUCCGACGAUC … UGGAAUUCUCGGGUGUCAAGG
| Oligonucleotide | log2 enrichment |
| --- | --- |
| GGCAGUAGCAGCAGCGCCGGGUCCCGUGCGGAGGUGCUCCUCGCAGAGUUGUUUCUCGAGCAGCGGCAGUUCUCACUACAGCGCCAGGAC | -2.11 |
| UCCUGUGCUACACAUCGUAUGUACCGAAUCGGGCCCCCCGGCCCCCCGGGGCCCCCCGGAAAGUAUUAUGUUACGCCGUUCGGAUCUGCA | 0.203 |
| AGUCCUGUGCUACACAUCGUAUGUACCGAAUCGGGAAAAAGGGUUUUUUUGGGAGGGAAAGUAUUAUGUUACGCCGUUCGGAUCUGCACU | -1.99 |
| CCUGUGCUACACAUCGUAUGUACCGAAUCGGGGCCCCCCGGGGCCCCCCGGGGCCCCCCGGAAAGUAUUAUGUUACGCCGUUCGGAUCUG | -2.63 |
| CUGUGCUACACAUCGUAUGUACCGAAUCGGGGAAAAAAAGGGGAAAAAAAGGAAAAAAAGGAAAGUAUUAUGUUACGCCGUUCGGAUCUG | 0.139 |
| UCAAGUCCUGUGCUACACAUCGUAUGUACCGAAUCGGGUUUGGUUUGGGGUUUGGAAAGUAUUAUGUUACGCCGUUCGGAUCUGCACUUC | -1.89 |
| CACAGACAACACGCACCCACACAGACACAGAGGGAAGGGGUUGGGAUGGGGACAGGGUGCACAGCAGGGCGGGGUAGGACCCAAGCCCCU | -0.509 |
| UCCUGUGCUACACAUCGUAUGUACCGAAUCAAAUUUUUUUAAACCCCCCCAAACCCAAAAAAGUAUUAUGUUACGCCGUUCGGAUCUGCA | 2.06 |

Set 3
Target: ATF7, bZIP domain (human)
Technique: DHFR protein complementation
Sample: yeast
Setting: single substitutions, most at no-binding floor
Reference: wild-type JUN-FOS pair
Reading: higher = stronger binding
Starting sequence: JUN, bZIP domain (human); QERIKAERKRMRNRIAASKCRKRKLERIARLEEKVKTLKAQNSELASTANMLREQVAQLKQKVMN; partner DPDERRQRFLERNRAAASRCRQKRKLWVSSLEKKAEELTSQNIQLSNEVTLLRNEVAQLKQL
| Variant | binding fitness [natural log] |
| --- | --- |
| A29E | -0.961 |
| S43T | -0.749 |
| E32S | -1.2 |
| K39Y | -1.24 |
| E54G | -1.16 |
| I28S | -1.14 |
| Q55L | -0.955 |
| A40E | -0.839 |

Other studies, line by line
| SMILES | cell line | concentration | time | endpoint | result |
| --- | --- | --- | --- | --- | --- |
| CC(C)(C)c1cc(C(C)(C)C)c(NC(=O)c2c[nH]c3ccccc3c2=O)cc1O | A-375 | 100 µM | 18 h | viability | 8.6% |

A few entries again (set 2):
| Oligonucleotide | log2 enrichment |
| --- | --- |
| UCCUGUGCUACACAUCGUAUGUACCGAAUCAAAUUUUUUUAAACCCCCCCAAACCCAAAAAAGUAUUAUGUUACGCCGUUCGGAUCUGCA | 2.06 |
